Results of several laboratories.
Each numbered part is a random draw from the data of one study; scales do not carry over between parts. Positions count from the first letter of the parent shown.

Block 1 — target: UBE2M UBC core domain (UniProt P61081); method: yeast two-hybrid; matrix: yeast; notes: mostly zero background; baseline: not given; direction: higher = stronger interaction
B1: RNF103 RING domain (UniProt O00237); chain WPADMLHCTECVVCLENFENGCLLMGLPCGHVFHQNCIVMWLAGGRHCCPVCRWPSYKKKQPY
B2: TRIM11 RING domain (UniProt Q96F44); chain LSTNLQEEATCAICLDYFTDPVMTDCGHNFCRECIRRCWGQPEGPYACPECRELSPQRNLRP
B3: RUFY1 RING domain (UniProt Q96T51); chain QALKGHAWLKDDEATHCRQCEKEFSISRRKHHCRNCGHIFCNTCSSNELALPSYPKPVRVCDSCHTLLLQRCSSTAS
B4: ZNRF4 RING domain (UniProt Q8WWF5); chain VRTFTWHNDLCAICLDEYEEGDQLKILPCSHTYHCKCIDPWFSQAPRRSCPVCKQSVAATEDSF
B5: HLTF RING domain (UniProt Q14527); chain LILSSGSDEECAICLDSLTVPVITHCAHVFCKPCICQVIQNEQPHAKCPLCRNDIHEDNLLE
B6: RNF186 RING domain (UniProt Q9NXI6); chain HSGSTECDLECLVCREPYSCPRLPKLLACQHAFCAICLKLLLCVQDNTWSITCPLCRKVTAVPGGLI
B7: ARIH2 RING domain (UniProt O95376); chain HVPTSHPPHHCAVCMQFVRKENLLSLACQHQFCRSCWEQHCSVLVKDGVGVGVSCMAQDCPLRTPEDFVF
Construct (chain): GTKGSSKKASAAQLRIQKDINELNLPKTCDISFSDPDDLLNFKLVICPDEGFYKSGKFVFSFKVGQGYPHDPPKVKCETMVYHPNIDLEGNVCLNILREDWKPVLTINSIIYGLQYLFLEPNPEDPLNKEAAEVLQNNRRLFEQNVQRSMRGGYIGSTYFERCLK
| Molecule | lacZ reporter activity |
| --- | --- |
| FDPPLESKYECPICLMALREAVQTPCGHRFCKACIIKSIRDAGHKCPVDNEILLENQLFP (TRAF6 RING domain (UniProt Q9Y4K3)) | 0 |
| EIKEYKARLTCPCCNTRKKDAVLTKCFHVFCFECVRGRYEARQRKCPKCNAAFGAHDFHR (RNF40 RING domain (UniProt O75150)) | 0 |
| B1 (RNF103 RING domain) | 0 |
| DDVLTKDAGECVICLEELLQGDTIARLPCLCIYHKSCIDSWFEVNRSCPEHPAD (ZNRF1 RING domain (UniProt Q8ND25)) | 0 |
| B2 (TRIM11 RING domain) | 0 |
| B3 (RUFY1 RING domain) | 0 |
| B4 (ZNRF4 RING domain) | 0 |
| B5 (HLTF RING domain) | 0 |
| B6 (RNF186 RING domain) | 0 |
| ASPKIFQKTKCSICNSALELPSVHFLCGHSFHQHCFESYSESDADCPTCLPENRKVMDMI (VPS11 RING domain (UniProt Q9H270)) | 0 |
| B7 (ARIH2 RING domain) | 0 |

Block 2 — method: RNA Bind-n-Seq; molecule type: RNA; matrix: in vitro; concentration: not given; baseline: input RNA pool; direction: higher = stronger binding
Target: RING finger protein unkempt homolog, zinc fingers 1-6, GST-SBP tag (UNK, Homo sapiens, UniProt Q9C0B0, residues 30-357)
Chain of UniProt Q9C0B0 (30-357, looked up): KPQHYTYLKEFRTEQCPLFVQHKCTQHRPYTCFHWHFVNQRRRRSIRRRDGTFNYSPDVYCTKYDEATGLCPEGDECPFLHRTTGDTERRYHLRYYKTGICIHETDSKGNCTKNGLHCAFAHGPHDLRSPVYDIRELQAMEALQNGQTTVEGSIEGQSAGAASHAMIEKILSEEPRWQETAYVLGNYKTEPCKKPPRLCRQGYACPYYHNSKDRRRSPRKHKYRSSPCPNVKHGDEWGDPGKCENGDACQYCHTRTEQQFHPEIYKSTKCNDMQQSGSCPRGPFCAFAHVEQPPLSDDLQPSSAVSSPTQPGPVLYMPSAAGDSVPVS
Notes: RNA with constant flanks, human-mouse chimeric sites, ends assumed
Shared flanks, not repeated: GGGAGUUCUACAGUCCGACGAUC … CAACAGAGGAUUGAGCAUCA
| Strand | bound/input enrichment |
| --- | --- |
| AGAGAUAAAGCAUCUAGAAAUAUGAGAGGCUCCCGGAUGAAUGGGUUGCCUAGCCCCACUCACAGCGCCCACUGUAGCUUCUACCGAACCAGAACCUUGCAGGCACUGAGUAAUGAGAAG | 0.705 ratio |
| GAGUCGAGCAAACUUGAAACAAUUCGUUAUCUUGCAGCCUCAGUGUUUUUACUUGCCGCGAUAGCAUUGGGGUUUUAUAUAGAUUCUAAGGAGAACUGACGAUGAUGCUGCCGCUGCUGC | 0.38 ratio |
| CACAGAGCAGCACCUACCUCCUCCUUCUUUCCACACCUGCAAACUCUUUUACUUGGGCUGAAUAUUUAGUGUAAUUACAUCUCAGCUUUGAGGGCUCCCUGUGGCAAUUCCCGGAUUAAA | 1.04 ratio |
| GAUGAUAAUCACACAAACAAGUCACUGUUACAUGACCAGAGUUGUACUUCUUCUCCUGAUUAAUAUUCUCCCUGGAACCACUGGUCAAGGGGAAUCAAGACGACAAGAACCCGGGGACUU | 0.193 ratio |
| UACUCAACUUUCUUGCCACGUUUUGAAUUCCAAGACAUUAUUCCUCCAGAUGACUUCCUAACGAGUGAUGAAGAGCAAGAUUUGGUUUUAUUUGGAACUAUGAGAGGACAAGUUGUUGGA | 0.183 ratio |
| UAACCACAUCAAGAUGGUUGGAAAGCUGAAGCAGAACUUACUCUUGGCGUGUCUGGUGAUUAGUUCUGUGACCGUGUUUUACCUGGGCCAGCAUGCCAUGGAGUGCCAUCACCGGAUAGA | 0.174 ratio |
| CGCUGGCCCAAGCUGAUGGACUCUGAUGGCCUCCAUCUCUCAGGCACGUUUGCCUUCUCUUAGUCCCUGUUUUCGGGAUGUUAUGAAUCUCAGUACUGUUUGACAGAAGCACCAGCUUUG | 0.171 ratio |
| AAAGCCCAAGUAUUUUGAAAAAACUCGAACAGAUUUGUCAAGGGUAACCAGCUUGGAGUCUAGCAACUUGCCAAUGUGUUUACCAAUUUUGGGGGCUGUUUUUCUUUUCUUCUUUCAAAU | 0.46 ratio |
| CAGUCCCCGUGUCCCAGUGCAGGACGAUGUGAACAAAAACUCAAAGCGGACCCUCUAUUGUAGUUCUUGAUUCUCGAGUGCCAUUAUUGUUUUUAAACUUUUUUUUUUUUUUUUUAAAGA | 1.31 ratio |
| AAUUUCCGCAACUGUUUUUUAGACAUUGCCAUAGGUAUUACAGAGCACCUGGCCACAUUCUAGGUUUGUGUUAUUUCUCAGCUAUGGAUAUGAUCAAAUGAGAACACUGCUUAACUAAUG | 1.59 ratio |
| UCUUAACUUAUUCAUUUAACUUAUUUUUAUAGCUAGAGCAAUAUUGUUAGUCUUAGACAAUAGCUCACAUUUUUUGAGAAGCAUGCCCUCCCUGUCCAUUGGGCCCAUAACAUGACCCAG | 131 ratio |

Block 3 — target: CCNA1, cyclin fold, Cln2 fusion (human); method: yeast growth competition, sequencing; matrix: yeast; notes: weak parent motif; baseline: not given; direction: higher = stronger binding
Parent: RB1 docking peptide (human); PKPLKKLRFDIEG; partner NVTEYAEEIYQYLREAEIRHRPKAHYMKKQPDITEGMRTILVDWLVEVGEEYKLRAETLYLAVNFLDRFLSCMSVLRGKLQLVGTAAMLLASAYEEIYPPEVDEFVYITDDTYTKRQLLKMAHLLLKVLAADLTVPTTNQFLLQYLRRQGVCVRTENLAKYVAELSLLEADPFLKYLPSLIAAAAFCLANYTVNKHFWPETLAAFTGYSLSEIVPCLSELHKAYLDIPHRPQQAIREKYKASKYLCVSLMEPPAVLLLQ
| Change | normalised enrichment score |
| --- | --- |
| F9K | 0.403 |
| P3A | 0.436 |
| F9Q | 0.267 |
| F9M | 0.332 |
| K6T | 0.251 |
| F9V | 0.0766 |
| I11F | 0.143 |
| P3K | 0.659 |
| P3I | 0.0714 |
| D10I | -0.54 |
| L4F | 0.458 |
| K6H | 0.417 |
| E12I | 0.618 |
| K6E | -0.145 |
| L4C | 0.415 |
| K5A L7A | 0.0596 |
| K6Q | 0.0667 |
| G13T | -0.136 |
| L7E | 0.102 |
| R8E | 0.279 |
| K2C | 0.357 |
| K5D | 0.0804 |
| K2S | 0.281 |
| L4M | 0.256 |
| L4N | 0.171 |

Block 4 — method: RNAcompete; molecule type: RNA; matrix: in vitro; concentration: 20 nM; notes: 7-mer, probes averaged, single round; baseline: mean of 7-mers; direction: higher = stronger binding
Target: PABPC1L2, full length, GST fusion (mouse, UniProt A0ABA7IW68)
Construct (chain): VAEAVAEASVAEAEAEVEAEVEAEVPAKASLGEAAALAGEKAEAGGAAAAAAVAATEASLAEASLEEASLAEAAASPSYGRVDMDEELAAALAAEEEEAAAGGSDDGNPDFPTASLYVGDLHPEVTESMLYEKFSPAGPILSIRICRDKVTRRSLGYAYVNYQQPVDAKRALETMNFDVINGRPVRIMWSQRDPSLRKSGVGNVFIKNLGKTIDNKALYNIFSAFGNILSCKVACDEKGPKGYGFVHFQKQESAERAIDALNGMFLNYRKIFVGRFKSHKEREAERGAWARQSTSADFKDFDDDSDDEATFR
| Strand | 7-mer Z-score |
| --- | --- |
| UCAAGCC | -0.193 |
| ACUGCGA | -0.0482 |
| UACCCGU | -0.316 |
| UCUGAUU | -0.306 |
| AACGAAA | 1.39 |
| AAGCACU | 0.2 |
| ACAAUUC | 0.017 |
| CCUACUA | -0.17 |
| ACCGACC | -0.108 |
| GCAUAUG | -0.168 |
| CCACUCA | -0.284 |
| CCCUUGU | -0.344 |
| GAGUUGG | -0.146 |
| UCGCUGU | -0.492 |
| CCUUAUU | -0.338 |
| AUCUCUU | -0.351 |
| UGAAGUA | -0.155 |
| UGCCCAC | -0.262 |
| AUGGCUA | 0.104 |
| CCAACAU | -0.0355 |
| GAUCCCC | -0.519 |
| AAGAUGC | 0.323 |

Block 5 — method: universal PBM; molecule type: double-stranded DNA, one strand shown; matrix: in vitro; concentration: 600 nM; direction: higher = stronger binding
Target: Sal-like protein 4, full length isoform A (SALL4, Homo sapiens, UniProt Q9UJQ4, residues 1-1053)
Chain of UniProt Q9UJQ4 (whole entry, looked up): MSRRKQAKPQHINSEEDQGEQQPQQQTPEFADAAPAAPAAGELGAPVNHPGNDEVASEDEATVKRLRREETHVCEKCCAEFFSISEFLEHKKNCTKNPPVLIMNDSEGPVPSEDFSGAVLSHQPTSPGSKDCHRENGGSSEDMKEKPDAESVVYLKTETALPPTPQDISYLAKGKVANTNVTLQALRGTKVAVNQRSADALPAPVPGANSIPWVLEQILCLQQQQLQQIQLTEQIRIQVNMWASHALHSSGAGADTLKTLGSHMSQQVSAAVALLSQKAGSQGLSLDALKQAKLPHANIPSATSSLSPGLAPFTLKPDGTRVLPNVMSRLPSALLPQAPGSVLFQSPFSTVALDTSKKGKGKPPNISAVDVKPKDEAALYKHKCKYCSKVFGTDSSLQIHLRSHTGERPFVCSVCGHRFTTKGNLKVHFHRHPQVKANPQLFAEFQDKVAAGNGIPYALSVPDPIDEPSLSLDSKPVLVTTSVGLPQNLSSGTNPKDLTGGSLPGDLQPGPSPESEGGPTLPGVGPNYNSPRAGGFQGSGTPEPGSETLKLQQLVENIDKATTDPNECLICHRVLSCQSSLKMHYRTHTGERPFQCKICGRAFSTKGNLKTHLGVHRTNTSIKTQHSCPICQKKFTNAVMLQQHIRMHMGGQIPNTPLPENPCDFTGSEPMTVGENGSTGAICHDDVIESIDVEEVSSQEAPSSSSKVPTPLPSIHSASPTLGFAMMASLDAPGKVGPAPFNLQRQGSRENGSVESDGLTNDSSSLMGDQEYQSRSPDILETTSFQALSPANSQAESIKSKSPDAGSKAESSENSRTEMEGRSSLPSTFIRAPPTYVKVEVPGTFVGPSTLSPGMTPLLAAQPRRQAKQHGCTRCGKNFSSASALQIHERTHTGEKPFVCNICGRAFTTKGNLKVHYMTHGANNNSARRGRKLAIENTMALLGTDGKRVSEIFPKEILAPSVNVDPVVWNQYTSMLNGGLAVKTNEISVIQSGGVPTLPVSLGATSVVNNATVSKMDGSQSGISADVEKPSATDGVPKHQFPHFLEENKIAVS
Notes: 8-mer, flanks averaged, mean of replicates
| Strand | E-score |
| --- | --- |
| CATTAGGG | 0.0246 |
| GCGACCAA | -0.193 |
| GACGCACC | -0.243 |
| TCCGGTAA | 0.0345 |
| AAGGGCCC | -0.249 |
| CCGTGGAC | -0.274 |
| GTATAAAC | 0.203 |
| ACGATACT | 0.113 |
| CAGGACGC | -0.158 |
| CAACAGCA | -0.0556 |
| ACTGTGGC | -0.289 |
| CCATGACG | -0.164 |
| CTGACCCA | -0.16 |
| GACTACAC | 0.13 |
| ATCCGTGG | -0.208 |
| CATGACCC | -0.183 |
| CGAGTAAG | -0.0554 |
| GTGACCGA | -0.141 |
| AACTGCCT | 0.0644 |
| TCCAGCCA | -0.313 |
| AGACGACC | -0.187 |
| ATCCAGGC | -0.258 |
| CCATGAGG | -0.238 |
| AAACAATA | 0.353 |
| GACCGGTC | -0.256 |
